Assay results pooled from the literature.
Each numbered part is a random draw from the data of one study; scales do not carry over between parts. Substitutions count along the parent as printed.

Set 1
Target: RNA binding protein fox-1 homolog 2, RRM domain, GST-SBP tag (RBFOX2, Homo sapiens, UniProt O43251-10, residues 100-194)
Method: RNA Bind-n-Seq
Molecule type: RNA
Medium: in vitro
Tested at: 365 nM
Notes: natural RNA segment, single round, ends assumed
Reference: no-protein control
Reading: higher = stronger binding
Measurement: RBNS enrichment (R)
Shared flanks, not repeated: GGGAGUUCUACAGUCCGACGAUC … UGGAAUUCUCGGGUGCCAA
Target sequence (chain): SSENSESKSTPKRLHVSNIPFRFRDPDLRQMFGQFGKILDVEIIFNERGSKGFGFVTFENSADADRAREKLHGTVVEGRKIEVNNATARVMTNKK
ACUUGGGCCUGAUGCUUCUCUAACUGGCAGAAGCAGGCUCUACCUGGACCUCCAGCUGGGAGGUCAUCCUCCCUCUAGCUUGUAUGUCCUGUACUUUGCAACCCCUAAGC: 0.91
GGGCUCUCCGGUGCAGCUUUAACUGCAGCCGCUCUGGUAAGCCGCUCUUAUUUCCCCUUCUGUCUGCAGCCAGUCAUGUGGCAUGGGAGCUGUGCUGGGGAGGCAGUGUA: 2.96
GAAGUCAACUCGGGGGACAUGCAAAAAUAACUAUAUAAGACAUUAAAAGAACAAAGAGUGAAAUAUUGUAAAUGCUAUUAUACUGUUAUCCAUAUUACGUUGUUUCUUAU: 0.723
AUACAAUAUGCUGGACAUGUGACUCAUGGCUAGAGAAUGUGUCUAGCAUGAUCGGGGACUAAGUUCUCACCCCAGCACUAAAUAAAUAAAACCAAGUCAACAGCCAUCAA: 0.494
AUAAACCCACCUAAGUGAAAUGGCCAUCCUCUAAACUGGGUACCUCACUGCACAGCUUCUAGGUAGCCUUCCAACUUAAUCUAACUUGAGCCUCACAGUAACCCUGUAAA: 0.287
AUAAUUUUGGAAUUUGUUUCUCAUAAUACAGAAUAUAUAGUGGCUACCUUGUAUCUUGGUCUGGAUUCUCUCUCUGAGACCCCGGAUUUUACUUUCUCUUUGGAGGGCGC: 0.364
ACCUCUGUCAUUCAGGCAUUGGGGUACAUCCUGAUAAGUCGUGUCAGAACUGCCAAUUUCAGGACUGAGAUGUGUUUUUAAAAAACAAAUCCUUAUAAACUCCACUUUGU: 0.369
ACCCCUUGGGCUAUGGACCCCAUUCCCUUGCCAUCACCCCCGCCAGUGGGUCUGCUUCACUGUGGAAGGAGAAACUGUGACUUUCUGGUUGCAUUACUGCAAAACAGCAA: 0.271
AUGAACCCCUGGCUCCUUCACCACCCCCACGAUUGGUAUGAUGCUGCCGGCACAGCUGGGAUACACACGGCUCCCCCAGGCCUGAGCUGCUUCACUAGGGAAUCCUGCGG: 0.412
UGGCUCGGGCAAGUGGAAGCACGUGGAGUCAGACAGACCUAAGUCCCAGGCCCAGAUUAGCCACUCGUUAGCUGUGUGACUGACUCUGGGCUAGUCACCUGGCCCCUGUG: 0.956
CUCUCGGCCCAGCAAGAGAACAAUUCUUUCCGGGAUUGGCUGGCUCAGGUUGGGCGGGGCCGGUUCUAAACGCUCCAAGGGUCAACUCUGUUUCUUGCCUAGCAAACGAA: 0.219

Set 2
Target: Sal-like protein 4, full length isoform B (SALL4, Homo sapiens, UniProt Q9UJQ4-2, residues 1-616)
Method: universal PBM
Molecule type: double-stranded DNA, one strand shown
Medium: in vitro
Tested at: not given
Notes: 8-mer, flanks averaged, mean of replicates
Reading: higher = stronger binding
Measurement: E-score
Residues (chain): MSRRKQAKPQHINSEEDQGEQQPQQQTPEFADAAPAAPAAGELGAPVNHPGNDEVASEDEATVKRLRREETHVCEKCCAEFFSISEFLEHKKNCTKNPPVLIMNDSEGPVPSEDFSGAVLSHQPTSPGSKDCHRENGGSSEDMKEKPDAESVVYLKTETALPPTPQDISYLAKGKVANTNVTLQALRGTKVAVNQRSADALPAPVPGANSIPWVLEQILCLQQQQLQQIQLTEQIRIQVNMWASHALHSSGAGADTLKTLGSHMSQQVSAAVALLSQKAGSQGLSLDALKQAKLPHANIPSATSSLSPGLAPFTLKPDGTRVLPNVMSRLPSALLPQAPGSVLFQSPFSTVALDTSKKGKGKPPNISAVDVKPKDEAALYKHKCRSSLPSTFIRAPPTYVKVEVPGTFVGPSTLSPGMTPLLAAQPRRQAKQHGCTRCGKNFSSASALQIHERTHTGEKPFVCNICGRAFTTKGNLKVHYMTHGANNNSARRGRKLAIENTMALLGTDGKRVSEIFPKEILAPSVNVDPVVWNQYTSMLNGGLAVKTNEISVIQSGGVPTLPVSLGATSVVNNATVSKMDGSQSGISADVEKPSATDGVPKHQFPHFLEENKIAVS
TGTCCCAA: -0.0639
CCACTATC: -0.114
AAAGAACG: 0.147
CTTGTGAA: 0.0682
CCCCTTTA: -0.0135
ATGCGGTC: -0.00043
GCGCTAAC: -0.0979
ACCATGTC: 0.0222
AAACGAGT: 0.0808
TAAGGGTA: 0.028
CTGGGGAC: -0.345
ACGTTACG: 0.145
AATTGCGG: 0.096
GTGCTGCA: -0.0706
ACGTACCA: 0.0208
CAGACCGA: -0.207
AAGGCCCA: -0.21

Set 3
Target: CCNB3, cyclin fold, Cln2 fusion (human)
Method: yeast growth competition, sequencing
Medium: yeast
Notes: weak parent motif
Reference: not given
Reading: higher = stronger binding
Measurement: normalised enrichment score
Starting sequence: FZR1 docking peptide (human); QDYERRLLRQIVI; partner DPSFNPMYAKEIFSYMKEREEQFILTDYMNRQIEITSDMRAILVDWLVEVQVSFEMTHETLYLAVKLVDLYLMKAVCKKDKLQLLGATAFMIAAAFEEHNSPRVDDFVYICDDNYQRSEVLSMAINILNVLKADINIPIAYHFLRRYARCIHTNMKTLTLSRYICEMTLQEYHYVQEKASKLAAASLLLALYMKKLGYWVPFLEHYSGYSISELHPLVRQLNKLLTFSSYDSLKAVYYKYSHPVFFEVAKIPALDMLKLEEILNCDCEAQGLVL
QDYERRALRQIVI [L7A]: 0.508
QDYERALLRQIVI [R6A]: 0.58
ADYERRLLRQIVI [Q1A]: 0.436
QDYERRLLRQAVI [I11A]: 0.453
QDYERRLFRQIVI [L8F]: 0.0348
QDYARRLLRQIVI [E4A]: 0.259
QAYERRLLRQIVI [D2A]: 0.0821

Mixed results
PhoQ, residues 284 288 289 292 302 303 TNSAEL
fold induction (PhoP, residues 12 14 15 18 19 NQFFI (Escherichia coli, UniProt P23836); Sort-seq, item: YFP reporter; E. coli; PhoQ-PhoP variant library, added: 10 µM Mg2+; reference: high Mg2+ state, higher = stronger signaling): 1.19
